Measurements gathered from unrelated publications.
Each numbered part is a random draw from the data of one study; scales do not carry over between parts. Positions count from the first letter of the parent shown.
Chain of UniProt Q9XFM0 (whole entry, looked up): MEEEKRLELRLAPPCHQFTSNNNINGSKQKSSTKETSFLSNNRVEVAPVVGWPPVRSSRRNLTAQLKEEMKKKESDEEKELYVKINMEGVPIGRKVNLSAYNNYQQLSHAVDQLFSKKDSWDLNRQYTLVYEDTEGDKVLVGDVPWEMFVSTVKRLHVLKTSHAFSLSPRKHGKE
Chain of UniProt P93024 (whole entry, looked up): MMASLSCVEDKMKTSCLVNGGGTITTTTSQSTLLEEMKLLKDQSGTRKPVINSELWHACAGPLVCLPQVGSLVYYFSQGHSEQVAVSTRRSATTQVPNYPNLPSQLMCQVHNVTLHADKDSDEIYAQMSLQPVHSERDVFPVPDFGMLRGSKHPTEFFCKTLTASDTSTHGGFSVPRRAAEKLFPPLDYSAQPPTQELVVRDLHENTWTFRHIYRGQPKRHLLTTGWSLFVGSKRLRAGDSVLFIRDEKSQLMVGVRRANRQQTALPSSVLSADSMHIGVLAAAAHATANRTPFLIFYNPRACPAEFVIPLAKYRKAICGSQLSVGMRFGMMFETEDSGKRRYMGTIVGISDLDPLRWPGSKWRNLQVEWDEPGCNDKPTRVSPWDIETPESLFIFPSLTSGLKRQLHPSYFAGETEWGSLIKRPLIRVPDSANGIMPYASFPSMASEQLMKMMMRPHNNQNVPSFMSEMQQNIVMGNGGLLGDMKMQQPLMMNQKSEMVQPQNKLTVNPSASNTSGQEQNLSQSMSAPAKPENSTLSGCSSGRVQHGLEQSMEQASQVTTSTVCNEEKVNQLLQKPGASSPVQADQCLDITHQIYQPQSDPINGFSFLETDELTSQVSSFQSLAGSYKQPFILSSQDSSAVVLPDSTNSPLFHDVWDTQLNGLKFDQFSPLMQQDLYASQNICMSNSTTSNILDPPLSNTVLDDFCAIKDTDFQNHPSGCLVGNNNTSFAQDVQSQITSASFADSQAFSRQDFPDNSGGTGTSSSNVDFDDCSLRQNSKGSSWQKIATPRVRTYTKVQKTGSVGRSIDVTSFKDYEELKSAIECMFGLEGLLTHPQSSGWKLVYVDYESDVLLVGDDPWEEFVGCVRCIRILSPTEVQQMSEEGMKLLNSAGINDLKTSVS
Chain of UniProt Q9ZTX8 (whole entry, looked up): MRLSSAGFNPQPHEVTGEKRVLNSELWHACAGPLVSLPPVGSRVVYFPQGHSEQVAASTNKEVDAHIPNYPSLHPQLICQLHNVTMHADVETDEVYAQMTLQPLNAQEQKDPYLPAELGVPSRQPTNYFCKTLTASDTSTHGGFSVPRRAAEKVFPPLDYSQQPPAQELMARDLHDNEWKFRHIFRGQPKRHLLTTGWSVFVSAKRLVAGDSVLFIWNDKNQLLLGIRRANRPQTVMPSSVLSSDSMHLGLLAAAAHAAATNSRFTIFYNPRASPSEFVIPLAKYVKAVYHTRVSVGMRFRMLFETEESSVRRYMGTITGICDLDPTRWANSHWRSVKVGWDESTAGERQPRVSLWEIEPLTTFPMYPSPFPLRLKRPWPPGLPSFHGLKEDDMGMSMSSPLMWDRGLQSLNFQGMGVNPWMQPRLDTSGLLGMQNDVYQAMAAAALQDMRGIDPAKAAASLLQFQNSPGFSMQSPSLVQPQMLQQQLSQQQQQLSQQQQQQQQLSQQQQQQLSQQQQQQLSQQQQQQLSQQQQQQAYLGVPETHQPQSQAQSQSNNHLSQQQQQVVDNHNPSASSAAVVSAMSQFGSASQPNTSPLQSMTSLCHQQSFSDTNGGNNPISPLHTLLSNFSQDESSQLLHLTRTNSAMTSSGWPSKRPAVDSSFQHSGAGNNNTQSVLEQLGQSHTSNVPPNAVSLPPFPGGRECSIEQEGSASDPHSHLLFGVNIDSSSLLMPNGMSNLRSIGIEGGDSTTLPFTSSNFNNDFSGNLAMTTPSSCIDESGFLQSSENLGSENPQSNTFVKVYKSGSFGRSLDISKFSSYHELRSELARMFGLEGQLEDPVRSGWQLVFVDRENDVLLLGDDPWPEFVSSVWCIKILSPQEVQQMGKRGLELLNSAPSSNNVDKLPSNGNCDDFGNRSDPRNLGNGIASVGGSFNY
Chain of UniProt O24407 (whole entry, looked up): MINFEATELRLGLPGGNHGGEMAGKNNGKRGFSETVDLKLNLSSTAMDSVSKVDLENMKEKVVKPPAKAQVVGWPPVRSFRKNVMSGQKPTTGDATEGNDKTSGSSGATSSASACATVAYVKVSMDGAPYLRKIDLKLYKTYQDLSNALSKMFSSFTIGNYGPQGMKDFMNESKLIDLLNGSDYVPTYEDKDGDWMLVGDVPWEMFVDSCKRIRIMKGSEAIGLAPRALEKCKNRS
Chain of UniProt Q9XED8 (whole entry, looked up): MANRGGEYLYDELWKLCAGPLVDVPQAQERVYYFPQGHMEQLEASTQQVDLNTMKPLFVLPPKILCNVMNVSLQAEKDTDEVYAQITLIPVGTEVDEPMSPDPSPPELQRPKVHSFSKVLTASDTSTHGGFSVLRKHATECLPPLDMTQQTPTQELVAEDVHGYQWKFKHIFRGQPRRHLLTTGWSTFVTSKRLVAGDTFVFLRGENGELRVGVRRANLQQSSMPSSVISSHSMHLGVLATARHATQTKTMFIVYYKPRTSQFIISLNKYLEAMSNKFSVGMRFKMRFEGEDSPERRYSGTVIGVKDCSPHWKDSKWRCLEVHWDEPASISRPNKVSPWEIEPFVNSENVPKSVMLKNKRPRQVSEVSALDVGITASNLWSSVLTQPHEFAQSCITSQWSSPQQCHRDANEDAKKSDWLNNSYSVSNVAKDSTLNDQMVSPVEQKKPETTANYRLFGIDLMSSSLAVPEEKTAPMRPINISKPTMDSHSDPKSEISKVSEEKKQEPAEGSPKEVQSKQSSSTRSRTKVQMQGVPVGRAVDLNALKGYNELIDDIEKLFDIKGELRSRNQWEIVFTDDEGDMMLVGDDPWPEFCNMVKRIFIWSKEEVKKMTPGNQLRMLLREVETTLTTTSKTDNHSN

Set 1
Target: RNA binding protein fox-1 homolog 2, RRM domain, GST-SBP tag (RBFOX2, Homo sapiens, UniProt O43251-10, residues 100-194)
Technique: RNA Bind-n-Seq
Molecule type: RNA
Matrix: in vitro
Tested at: 365 nM
Notes: natural RNA segment, single round, ends assumed
Reference: no-protein control
Direction: higher = stronger binding
Construct (chain): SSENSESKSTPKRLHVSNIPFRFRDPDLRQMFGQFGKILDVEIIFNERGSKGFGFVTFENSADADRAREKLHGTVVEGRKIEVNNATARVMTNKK
For `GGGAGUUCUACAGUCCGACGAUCCAAAUGGAGUCCUUUUGUAUUACUCUCUAUGGGAUAGCACAAGAUAGCUCUGUAGGAUAGUCUCAGUUACUAGGGUAAUUUCUCAAUGAAGCACAUGCCUGUUUACGAUUUGGAAUUCUCGGGUGCCAA`, “RBNS enrichment (R)” read 1.28.
`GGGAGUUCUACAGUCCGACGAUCCCCCUUCUCCCCCCAUCAAAACGCUCAGAGACGUUGUGAUGAUGCGACUGAGGAUUAUGCAACGUGGUCCAACCGGAGCGGCCAGCAUGACCAGCUGUCCAGGGGCUGCCUGGAAUUCUCGGGUGCCAA` — result for “RBNS enrichment (R)”: 4.41.
For `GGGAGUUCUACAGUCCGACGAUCACCAUGACUUGCCGGGUGGAGCGUUUCAUUGAGAUUGGCAGUGGCACUUCCAAAAAGCUGGCAAAGCGUAACGCAGCAGCUAAGAUGCUCCUUCGAGUGCACACUGUACCUGGAAUUCUCGGGUGCCAA`, “RBNS enrichment (R)” read 0.407.
`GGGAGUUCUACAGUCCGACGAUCUUUAAUAUUUUUCAUUUAGCUAUAUAAUAAAAUUCACUAGGAAAAUCAUUUAAAGUUGAAAGAAAAAUAUUUAUAUAUUUUAUGAACCACAAGGACACUUUAAAACCUUAUGGAAUUCUCGGGUGCCAA` — result for “RBNS enrichment (R)”: 0.727.
Under “RBNS enrichment (R)”, `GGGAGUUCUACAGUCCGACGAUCAGCACGCACAGACAUACAUGUCGAGAGCGGACUUUAGGCUUUCAUGUGUUAAACCGCUUGAGUUACACCUUGUGACCCUUCUCCCAUAACAUGGUGUGAGGACGGACUGGUGGAAUUCUCGGGUGCCAA` is recorded as 4.04.
`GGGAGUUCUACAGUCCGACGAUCCGACGUUCUUUGCACACUAUAACAGAACACUUUCCUACUUGCUUAGGCAGUUACUCUUCCGAGUUUAUACUCGCCUCUUCUUUAAGAGGAUUUCCUGAAAAGGGAACACCUGGAAUUCUCGGGUGCCAA` — result for “RBNS enrichment (R)”: 0.436.
`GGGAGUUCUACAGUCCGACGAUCAGCCCUUGCACAGCUGGAGAAAUGGCAUCAUUAUAAGCUAUGAGUUGAAAUGUUCUGUCAAAUGUGUCUCACAUCUACACGUGGCUUGGAGGCUUUUAUGGGGCCCUGUCUGGAAUUCUCGGGUGCCAA`: “RBNS enrichment (R)” 0.554.
For `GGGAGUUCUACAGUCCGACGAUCCAUAUUAAAGCACAUAUGUAUAUAUCUUUUAUUUAUAAAUAAAAUUUUAAAACAAUAGUUUCAGUAUAGCCACAAAAGCUCUUUUGUCUUCAGUACAACGUUUGGGAGUUUGGAAUUCUCGGGUGCCAA`, “RBNS enrichment (R)” read 0.57.
Under “RBNS enrichment (R)”, `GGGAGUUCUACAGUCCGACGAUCUCUCCACUGCUGCCUCCCAGCAGAGGGCCCCAGGAUCUCCAAGGUCCCAGCUAUGGCUUUGGACAACGUGGCUUCGGCCCCUGGGGUUGCAGAGCUUGCAUUGGGUUUACUGGAAUUCUCGGGUGCCAA` is recorded as 0.196.
`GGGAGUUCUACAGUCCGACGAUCGUAUCCCUGUGCAAACUCCCAUGUUCUAGUUGCUGUUAGCAUCCCCUUUGUUGCUGUCUGAGAAAGUGAAAGAUUGUGUAUUUCUAUUAAAACAUUUACAGUCAAAAUCCUGGAAUUCUCGGGUGCCAA` — result for “RBNS enrichment (R)”: 1.43.
For `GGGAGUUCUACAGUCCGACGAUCCUCGUUUUCCCUGAUCCGUGGUGUUGCAGUCCGUUGUCACCAGCCUUGUUUCUAGUGUGUAUAUAUGUCGCCCCCGUGAUGCAUAUAUACACAGGUAUUAAAUAUAUCGCUGGAAUUCUCGGGUGCCAA`, “RBNS enrichment (R)” read 0.33.
`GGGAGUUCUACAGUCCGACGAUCUGGACAUCGUCUUAUCCCCAUAAUCCUUGCCAUCCCUACAAGGCCCAUCGCCACCACCUUUUCCCAGGUUUAUUGAGGUAUGAUUGACAUCCAGUAAAAUUCACCCUUUGUGGAAUUCUCGGGUGCCAA`: “RBNS enrichment (R)” 0.676.

Set 2
Target: ABI1, truncated, D143A, DHFR fusion (Arabidopsis thaliana)
Technique: DHFR PCA, deep sequencing
Matrix: yeast
Notes: methotrexate growth selection, single substitutions
With: (+)-ABA 17 µM
Reference: wild-type fitted maximum
Direction: higher = stronger binding
Parent: PYL1, truncated, DHFR fusion (Arabidopsis thaliana); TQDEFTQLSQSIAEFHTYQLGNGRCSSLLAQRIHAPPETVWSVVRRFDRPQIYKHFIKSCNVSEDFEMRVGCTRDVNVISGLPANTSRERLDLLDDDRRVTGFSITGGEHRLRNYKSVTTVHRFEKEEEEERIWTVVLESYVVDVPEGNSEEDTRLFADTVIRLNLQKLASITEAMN; partner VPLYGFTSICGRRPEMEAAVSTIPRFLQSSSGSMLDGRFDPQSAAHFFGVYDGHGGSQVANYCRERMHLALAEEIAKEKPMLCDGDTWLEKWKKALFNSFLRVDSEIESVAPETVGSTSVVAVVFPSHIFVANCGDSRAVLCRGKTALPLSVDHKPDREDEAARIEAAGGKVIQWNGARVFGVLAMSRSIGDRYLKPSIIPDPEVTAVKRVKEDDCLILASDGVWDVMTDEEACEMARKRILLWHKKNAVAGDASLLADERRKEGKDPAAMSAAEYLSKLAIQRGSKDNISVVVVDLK
For `L91I`, “relative binding score” read -18.7%.
Under “relative binding score”, `E139H` is recorded as 54.8%.
For `L164Y`, “relative binding score” read 86.5%.
`Y115M`: “relative binding score” 8.39%.
For `S9Y`, “relative binding score” read 59.8%.
Under “relative binding score”, `R98Y` is recorded as 39.8%.
For `L138P`, “relative binding score” read -1.66%.
`E109C`: “relative binding score” 63.2%.
Under “relative binding score”, `S117H` is recorded as -4.57%.
Under “relative binding score”, `E14V` is recorded as 49.9%.
`S104L` — result for “relative binding score”: 4.97%.
`D159H` — result for “relative binding score”: -1.45%.
For `R69A`, “relative binding score” read 82.1%.

Set 3
Molecule: B1 (IAA12)
Technique: two-hybrid
Direction: higher = firmer interaction
B1: IAA12 (Arabidopsis thaliana, UniProt Q38830); chain MRGVSELEVGKSNLPAESELELGLGLSLGGGAWKERGRILTAKDFPSVGSKRSAESSSHQGASPPRSSQVVGWPPIGLHRMNSLVNNQAMKAARAEEGDGEKKVVKNDELKDVSMKVNPKVQGLGFVKVNMDGVGIGRKVDMRAHSSYENLAQTLEEMFFGMTGTTCREKVKPLRLLDGSSDFVLTYEDKEGDWMLVGDVPWRMFINSVKRLRIMGTSEASGLAPRRQEQKDRQRNNPV
It gave 4 for positive tests (IAA16 (Arabidopsis thaliana, UniProt O24407); reference: out of 4 tests).
For IAA28 (Arabidopsis thaliana, UniProt Q9XFM0); reference: out of 2 tests: positive tests read 2.
ARF6 790-935 (Arabidopsis thaliana, UniProt Q9ZTX8); reference: out of 4 tests — positive tests: 1.
ARF9 519-638 (Arabidopsis thaliana, UniProt Q9XED8); weak activation fusion; reference: out of 4 tests — positive tests: 2.
The positive tests was 4 (ARF5 788-902 (Arabidopsis thaliana, UniProt P93024); reference: out of 4 tests).

Set 4
Target: CCND2, cyclin fold, Cln2 fusion (human)
Technique: yeast growth competition, sequencing
Matrix: yeast
Notes: weak parent motif
Reference: not given
Direction: higher = stronger binding
Parent: DOT1L docking peptide (human); SEAKRRIVFTITT; partner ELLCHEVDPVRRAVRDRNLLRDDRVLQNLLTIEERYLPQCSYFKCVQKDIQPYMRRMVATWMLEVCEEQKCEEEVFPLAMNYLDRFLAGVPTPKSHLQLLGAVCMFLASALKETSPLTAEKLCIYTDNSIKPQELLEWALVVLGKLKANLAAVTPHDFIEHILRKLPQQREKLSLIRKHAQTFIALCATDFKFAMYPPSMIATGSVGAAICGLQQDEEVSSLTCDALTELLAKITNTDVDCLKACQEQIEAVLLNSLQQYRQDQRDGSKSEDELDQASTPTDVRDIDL
`SEAKARIVFTITT [R5A]`: “normalised enrichment score” 0.029.
Under “normalised enrichment score”, `AEAKRRIVFTITT [S1A]` is recorded as 0.151.
`SEAKRRAVFTITT [I7A]` — result for “normalised enrichment score”: 0.0374.
For `SAAKRRIVFTITT [E2A]`, “normalised enrichment score” read 0.649.
`SEAKRRIVFAITT [T10A]`: “normalised enrichment score” 0.129.
`SEAKRRIVFTITA [T13A]`: “normalised enrichment score” 0.62.

Set 5
Target: UBE2N UBC core domain (UniProt P61088)
Technique: yeast two-hybrid
Matrix: yeast
Notes: mostly zero background
Reference: not given
Direction: higher = stronger interaction
B2: TRIM4 RING domain (UniProt Q9C037); chain EAEDIQEELTCPICLDYFQDPVSIECGHNFCRGCLHRNWAPGGGPFPCPECRHPSAPAALRP
B3: TRIM43 RING domain (UniProt Q96BQ3); chain FSHAFQKELTCVICLNYLVDPVTICCGHSFCRPCLCLSWEEAQSPANCPACREPSPKMDFKT
B4: TRIM13 RING domain (UniProt O60858); chain MELLEEDLTCPICCSLFDDPRVLPCSHNFCKKCLEGILEGSVRNSLWRPAPFKCPTCRKETSATGINS
B5: RNF111 RING domain (UniProt Q6ZNA4); chain EGTEEDTEEKCTICLSILEEGEDVRRLPCMHLFHQVCVDQWLITNKKCPICRVDIEAQLPSE
B6: TRIM5 RING domain (UniProt Q9C035); chain LREVKLSPEGQKVDHCARHGEKLLLFCQEDGKVICWLCERSQEHRGHHTFLTEEVAREYQVKL
B7: RNF208 RING domain (UniProt Q9H0X6); chain SSAAAGEPLECPTCGHSYNVTQRRPRVLSCLHSVCEQCLQILYESCPKYKFISCPTCRRETVLFTDYG
B8: TRIM40 RING domain (UniProt Q6P9F5); chain LQKDNQEEGVCPICQESLKEAVSTNCGHLFCRVCLTQHVEKASASGVFCCPLCRKPCSEEVLG
Target sequence (chain): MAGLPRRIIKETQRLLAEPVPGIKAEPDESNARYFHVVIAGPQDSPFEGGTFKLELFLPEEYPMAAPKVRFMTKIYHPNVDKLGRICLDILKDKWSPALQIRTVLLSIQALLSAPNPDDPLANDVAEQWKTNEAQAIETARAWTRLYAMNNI
Under “lacZ reporter activity”, `B2 (TRIM4 RING domain)` is recorded as 0.
`B3 (TRIM43 RING domain)`: “lacZ reporter activity” 0.
For `B4 (TRIM13 RING domain)`, “lacZ reporter activity” read 0.
For `B5 (RNF111 RING domain)`, “lacZ reporter activity” read 0.
For `B6 (TRIM5 RING domain)`, “lacZ reporter activity” read 0.
Under “lacZ reporter activity”, `B7 (RNF208 RING domain)` is recorded as 0.
Under “lacZ reporter activity”, `MPIRALCTICSDFFDHSRDVAAIHCGHTFHLQCLIQWFETAPSRTCPQCRIQVGKRTIIN (TRAIP RING domain (UniProt Q9BWF2))` is recorded as 0.
`PAELEVQASECVVCLEREAQMIFLNCGHVCCCQQCCQPLRTCPLCRQDIAQRLRIY (LRSAM1 RING domain (UniProt Q6UWE0))`: “lacZ reporter activity” 3280.
`B8 (TRIM40 RING domain)` — result for “lacZ reporter activity”: 0.
